Published values pooled from the literature.
Each line is one published result; not all experiments were run side by side. “And” joins repeats or separate records; there may be more than shown.
T1: itself; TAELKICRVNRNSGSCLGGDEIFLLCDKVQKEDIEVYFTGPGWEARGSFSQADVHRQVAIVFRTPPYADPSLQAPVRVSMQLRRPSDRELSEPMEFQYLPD
T2: itself; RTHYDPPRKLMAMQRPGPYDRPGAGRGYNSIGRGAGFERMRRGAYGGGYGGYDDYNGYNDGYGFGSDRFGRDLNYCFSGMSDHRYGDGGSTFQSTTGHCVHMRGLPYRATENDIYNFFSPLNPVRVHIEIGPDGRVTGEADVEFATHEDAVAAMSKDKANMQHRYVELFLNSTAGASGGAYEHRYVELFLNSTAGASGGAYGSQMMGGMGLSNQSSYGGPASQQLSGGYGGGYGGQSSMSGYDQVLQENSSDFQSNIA
B1: RELA dimerization domain; chain TAELKICRVNRNSGSCLGGDEIFLLCDKVQKEDIEVYFTGPGWEARGSFSQADVHRQVAIVFRTPPYADPSLQAPVRVSMQLRRPSDRELSEPMEFQYLPD
B2: HNRNPH1 192-449 (Homo sapiens, UniProt P31943); chain RTHYDPPRKLMAMQRPGPYDRPGAGRGYNSIGRGAGFERMRRGAYGGGYGGYDDYNGYNDGYGFGSDRFGRDLNYCFSGMSDHRYGDGGSTFQSTTGHCVHMRGLPYRATENDIYNFFSPLNPVRVHIEIGPDGRVTGEADVEFATHEDAVAAMSKDKANMQHRYVELFLNSTAGASGGAYEHRYVELFLNSTAGASGGAYGSQMMGGMGLSNQSSYGGPASQQLSGGYGGGYGGQSSMSGYDQVLQENSSDFQSNIA
Chain of UniProt P13590 (whole entry, looked up): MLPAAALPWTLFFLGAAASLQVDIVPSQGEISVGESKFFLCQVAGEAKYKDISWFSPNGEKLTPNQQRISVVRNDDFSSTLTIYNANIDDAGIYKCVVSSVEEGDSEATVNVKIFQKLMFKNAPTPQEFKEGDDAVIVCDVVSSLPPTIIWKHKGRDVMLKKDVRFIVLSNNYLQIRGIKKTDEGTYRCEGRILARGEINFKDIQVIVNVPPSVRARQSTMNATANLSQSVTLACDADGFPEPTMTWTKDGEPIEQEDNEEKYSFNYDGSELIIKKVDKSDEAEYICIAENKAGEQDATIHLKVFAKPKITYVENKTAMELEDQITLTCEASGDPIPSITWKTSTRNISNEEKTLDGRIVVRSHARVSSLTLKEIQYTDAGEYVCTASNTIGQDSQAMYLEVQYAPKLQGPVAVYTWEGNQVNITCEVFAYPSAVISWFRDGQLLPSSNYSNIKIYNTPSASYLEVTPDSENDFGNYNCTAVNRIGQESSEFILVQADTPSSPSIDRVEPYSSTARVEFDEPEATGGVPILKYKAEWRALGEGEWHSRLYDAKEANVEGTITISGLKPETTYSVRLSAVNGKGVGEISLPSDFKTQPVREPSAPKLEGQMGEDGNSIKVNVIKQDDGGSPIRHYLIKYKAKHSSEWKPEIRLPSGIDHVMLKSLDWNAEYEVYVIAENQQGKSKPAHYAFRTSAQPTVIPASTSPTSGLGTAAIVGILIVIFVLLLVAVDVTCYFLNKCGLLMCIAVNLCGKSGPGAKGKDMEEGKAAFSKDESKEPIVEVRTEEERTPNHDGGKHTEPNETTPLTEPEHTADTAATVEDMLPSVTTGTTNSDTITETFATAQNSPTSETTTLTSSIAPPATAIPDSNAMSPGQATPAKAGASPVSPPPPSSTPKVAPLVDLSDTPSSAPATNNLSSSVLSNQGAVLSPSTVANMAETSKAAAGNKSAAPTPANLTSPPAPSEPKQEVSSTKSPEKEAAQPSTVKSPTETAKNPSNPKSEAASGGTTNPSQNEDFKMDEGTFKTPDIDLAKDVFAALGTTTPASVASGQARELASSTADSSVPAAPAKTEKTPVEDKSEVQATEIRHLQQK

Substance | partner | assay | system | conditions | scale | endpoint | result
MAPT R2R3 peptide, acetyl-lysine, second and third | itself | self-assembly into fibrils, ThT fluorescence, negative-stain TEM |  | 500 µM, pH 7.4, acetylated peptide, TFA-disaggregated |  | t1/2max of aggregation | 43.2 h
LL-37 mature (Homo sapiens) | itself | native MS | nanodiscs |  |  | molecule per partner | 2 and 6
NCAM1, polysialic acid removed (Gallus gallus, UniProt P13590) | itself | apparent initial rate | brain membrane vesicles |  | baseline: untreated vesicles, higher = faster aggregation | aggregation rate | 3.3 fold
MAPT R2R3 peptide, acetyl-lysine, three lysines | itself | ThT fluorescence aggregation |  |  |  | t1/2max | 61.4 h
B1 (RELA dimerization domain) | T1, itself | AUC |  |  |  | Kd | 800 nM
vapC Y72A (Salmonella typhimurium) | itself | lacZ reporter |  |  | baseline: wild type, higher = more transcription | vapBC transcription | 7 fold
dpo1 D231A/D318A (Saccharolobus solfataricus) | itself | DNA synthesis rate |  | positive allostery fit |  | Kd | 543 nM
GCN4 leucine zipper | itself | two-hybrid |  | early |  | β-galactosidase activity | 360 Miller units
DUT nuclear isoform (Homo sapiens) | itself | non-reducing SDS-PAGE western blot | total cell extracts | 18 h, not purified, added: hydrogen peroxide 0.1-0.5 mM | baseline: untreated cells, higher = more dimer | dimer formation | 5 fold
FUS prion-like domain | itself | nanoparticle tracking analysis |  |  | baseline: full-length FUS, higher = greater decrease | cluster abundance decrease | 60 fold
MAPT R1R3 peptide, acetyl-lysine, three lysines | itself | ThT fluorescence aggregation |  |  |  | t1/2max | 13.4 h
B2 (HNRNPH1 192-449) | T2, itself | trapping in hydrogel, hydrogel binding |  | pH 7.5, 4 °C, NaCl 200 mM |  | binding | binds

A few entries again:
Substance | partner | assay | system | conditions | scale | endpoint | result
MAPT R2R3 peptide, acetyl-lysine, second and third | itself | self-assembly into fibrils, ThT fluorescence, negative-stain TEM |  | 500 µM, pH 7.4, acetylated peptide, TFA-disaggregated |  | t1/2max of aggregation | 43.2 h
